Measured values collected from several papers.
Protocols differ between the studies behind these lines. ± marks the error that the study gave.

| SMILES | assay | system | conditions | scale | quantity | result |
| --- | --- | --- | --- | --- | --- | --- |
| Cc1cc(-c2nccc3c2ccn3CC(=O)Nc2ccc(-c3cnccn3)cn2)ccn1 | – | human | 5 mg once daily, multiple ascending dose | – | medical device site dermatitis | 37.5% |
| N#CCNC(=O)c1ccc(-c2ccnc(Nc3ccc(N4CCOCC4=O)cc3)n2)cc1 | – | healthy volunteers, plasma | dose not given, with: rifampin multiple-dose | relative to: with single-dose rifampin | AUCinf decrease | 15% |
| C=C1C(=O)O[C@H]2[C@H]1CC/C(CO)=C\CC[C@@]1(C)O[C@@H]21 | – | BALB/c mice male, blood | oral, 757 µmol/kg | – | time to appearance in blood | ≤ 15 min |
| Cc1nc2cccc(OCC(C)(C)C(=O)NC(C)C)c2c(N)c1C(=O)O | – | Sprague-Dawley rat, plasma | intravenous, 1 mg/kg, day 1 | relative to: female over male | AUClast ratio | 1.25 ± 0.41 |
| O=C(Nc1nc2cccc(-c3ccc(CN4CCS(=O)(=O)CC4)cc3)n2n1)C1CC1 | measured: body temperature increased | human rheumatoid arthritis patients | oral, 30 mg once daily, 4 weeks, regardless of relatedness | – | treatment-emergent adverse events | 0% |
| COc1cc2nccc(Oc3ccc(NC(=O)C4(C(=O)Nc5ccc(F)cc5)CC4)cc3)c2cc1OC | – | patients without relevant toxicity, plasma | oral, dose not given, mean | – | Ctrough | 574 ng/mL |
| C=CCN1CC(=O)N2[C@@H](Cc3ccc(O)cc3F)C(=O)N(Cc3cccc(N4CC(N5CCN(CC)CC5)C4)n3)C[C@@H]2N1C(=O)NCc1ccccc1 | – | advanced solid tumour patients | oral, 100 mg twice daily, grade ≥3, dose-escalation | – | treatment-related nausea | 0% |
| OC[C@H]1O[C@@H](c2ccc(Cl)c(Cc3ccc(O[C@H]4CCOC4)cc3)c2)[C@H](O)[C@@H](O)[C@@H]1O | – | Japanese type 1 diabetes patients, blood | 2.5 mg, day 28 | relative to: baseline | change in Non-HDL cholesterol | 3.23 mg/dL |
| Cc1ccc(NC(=O)c2ccc(CN3CCN(C)CC3)cc2)cc1Nc1nccc(-c2cncc(-c3oncc3C)c2)n1 | – | C57BL/6 mice, male, plasma and brain | oral, 100 mg/kg | – | t1/2 | 2 to 4 h |
| NC(CO)(CO)CCc1ccc(Sc2cccc(OCc3ccccc3)c2)cc1Cl | population PK model | human, blood | oral, 3 mg, cyclosporin covariate on CL | – | clearance typical value | 372 mL/min |
| CCCCC[C@H]1CC[C@H](c2ccc(OCC)c(F)c2F)CC1 | – | rat, fetus | 5000 ng/mL in perfusate, high dose, mixture of 21 LCMs | – | median fetal accumulation | 1.65 ng/g |
| COc1ncc(-c2nc3c(n2C(C)C)[C@H](c2ccc(Cl)cc2)N(c2cc(Cl)cn(C)c2=O)C3=O)c(OC)n1 | – | human patients, plasma | oral, 250 mg, 0-24 h, high-dose arm, cycle 2 day 1 | – | AUC(0-t) geometric mean | 22900 ng·h/mL |
| Nc1ncn([C@H]2C[C@H](O)[C@@H](CO)O2)c(=O)n1 | – | mouse plasma | 80 ng/mL, -80 °C, three freeze-thaw cycles, no THU | – | mean deviation from nominal | 7.63% |
| O=c1c2ccccc2oc2ccccc12 | – | tricaprin-tricaprylin mixture | 60 °C, tricaprin fraction 0.17 | – | solubility | 0.071 mole fraction |
| N#Cc1ccc2c(c1)[C@H]1CCCN(C(=O)c3ccc4[nH]cnc4c3)[C@H]1C2 | – | human | 80 mg, day 7 | relative to: baseline | cortisol level change | -131 nmol/L |
| COc1cc2c3cc1Oc1c(OC)c(OC)cc4c1[C@@H](Cc1ccc(O)c(c1)Oc1ccc(cc1)C[C@@H]3N(C)CC2)N(C)CC4 | – | mouse plasma, K3EDTA | 2 h, 25-26 °C, room temperature | – | remaining compound | 96% |
| N#C[C@@]1(c2ccc3c(N)ncnn23)O[C@H](CO)[C@@H](O)[C@H]1O | plasma protein binding | monkey plasma | 100 µM, time not given | – | recovery | 97.1% |
| CC(C)=CCC/C(C)=C/C(=O)O.Cc1cc(/C=C/C#N)cc(C)c1Nc1ccnc(Nc2ccc(C#N)cc2)n1 | – | Capryol 90 | – | – | kinetic solubility | ~50 mg/mL |
| CNC(=O)c1ccc(-c2cnc3ncc(Cc4ccc5ncccc5c4)n3n2)cc1F | – | Japanese patients | oral, 400 mg twice daily, any grade | – | Vertigo patients | 2% |
| COc1cccc(-c2n[nH]c(SCc3ccccn3)n2)c1OC | – | Sprague-Dawley rats, both sexes | oral dietary, 10 mg/kg/day, day 90, 12 h | – | plasma concentration | 525 ng/mL |
| CO[C@]1(C(=O)N[C@@H](C)c2ccc(-n3cc(F)cn3)nc2)CC[C@H](c2nc(C)cc(Nc3cc(C)[nH]n3)n2)CC1 | – | humans, feces | oral, dose not given | relative to: dose | excreted radioactivity | 72.5% |

For quick reference, copied from above:
| SMILES | assay | system | conditions | scale | quantity | result |
| --- | --- | --- | --- | --- | --- | --- |
| O=C(Nc1nc2cccc(-c3ccc(CN4CCS(=O)(=O)CC4)cc3)n2n1)C1CC1 | measured: body temperature increased | human rheumatoid arthritis patients | oral, 30 mg once daily, 4 weeks, regardless of relatedness | – | treatment-emergent adverse events | 0% |
| OC[C@H]1O[C@@H](c2ccc(Cl)c(Cc3ccc(O[C@H]4CCOC4)cc3)c2)[C@H](O)[C@@H](O)[C@@H]1O | – | Japanese type 1 diabetes patients, blood | 2.5 mg, day 28 | relative to: baseline | change in Non-HDL cholesterol | 3.23 mg/dL |
| O=c1c2ccccc2oc2ccccc12 | – | tricaprin-tricaprylin mixture | 60 °C, tricaprin fraction 0.17 | – | solubility | 0.071 mole fraction |
